Results collected from several papers.
Each numbered part is a random draw from the data of one study; scales do not carry over between parts. Substitutions count along the parent as printed.

Series 1 — method: protein binding microarray; form: double-stranded DNA, one strand shown; medium: in vitro; concentration: not given; baseline: not given; reading: higher = stronger binding
Target: Histone acetyltransferase KAT6A, winged helix 1, GST fusion (KAT6A, Homo sapiens, UniProt Q92794, residues 1-85)
Setting: 8-mer, flanks averaged, mean of 2 arrays, mostly near background
Target sequence (chain): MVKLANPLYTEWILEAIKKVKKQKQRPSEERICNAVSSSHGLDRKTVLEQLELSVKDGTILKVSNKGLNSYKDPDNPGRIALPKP
Oligonucleotide | E-score
ACTGCGGC | 0.318
CACCGTAG | 0.291
CTGCAATA | -0.0873
CACCCAAC | -0.215
ATTACATC | 0.109
AAAATCTC | -0.182
ATTGGAAA | -0.239
ACGTCGCC | 0.122
AAGTGATA | -0.218
ATTGCTCA | -0.2
ACTTAATG | -0.0976
GATTGAAA | -0.145
GGGCCAGA | -0.0219
ACCCGGGG | 0.279
CCTTCAAC | -0.301
GATTCAAC | -0.0375

Series 2 — target: CCNB1, cyclin fold, Cln2 fusion (human); method: yeast growth competition, sequencing; medium: yeast; setting: weak parent motif; baseline: not given; reading: higher = stronger binding
Starting sequence: WEE1 docking peptide (human); HKTFRKLRLFDTP
Substitution | normalised enrichment score
H1Q | 0.83
T12V | 1.08
R5G | -0.645
L7W | 0.401
K6H | 0.196
K2G | 0.48
L7H | 0.851
T3H | 0.691
D11R | 0.234
F4G | 0.299
R8D | 0.438
P13Q | -0.105
L9N | 0.685

Series 3 — method: RNA Bind-n-Seq; form: RNA; medium: in vitro; concentration: 200 nM; setting: whole 134-nt RNA, ends assumed; with: 150 mM LiCl; baseline: input library; reading: higher = stronger binding; all molecules: 7-deaza-guanosine replaces G
Target: Fragile X messenger ribonucleoprotein 1, C-terminal low-complexity region (Fmr1, Mus musculus, UniProt P35922)
Constant ends, left off below: GGGAGUUCUACAGUCCGACGAUC … UGGAAUUCUCGGGUGUCAAGG
Oligonucleotide | log2 enrichment
CACAGACAACACGCACCCACACAGACACAGAGGGAAGGGGUUGGGAAAGGGACAGGGUGCACAGCAGGGCGGGGUAGGACCCCAGCCCCU | 0.503
CCUGUGCUACACAUCGUAUGUACCGAAUCGGGCCCCCCCGGGCCCCCCCGGCCCCCCCGGGAAAGUAUUAUGUUACGCCGUUCGGAUCUG | 0.483
AAGUCCUGUGCUACACAUCGUAUGUACCGAAUCAAACCCCCAAACCCAAACCCAAAAAAGUAUUAUGUUACGCCGUUCGGAUCUGCACUU | -0.185
GUCCUGUGCUACACAUCGUAUGUACCGAAUCGGGUUUUUGGGUUUUUUUGGGAAAGGGAAAGUAUUAUGUUACGCCGUUCGGAUCUGCAC | -0.715
CAAGUCCUGUGCUACACAUCGUAUGUACCGAAUCGGUUUGGUUUUUGGUUUUUGGAAAGUAUUAUGUUACGCCGUUCGGAUCUGCACUUC | -1.42
UAACUUUAGAGGAGGAUCUGAUGGAUAUGGCAGUGGACGUGGAUUUGGGGAUGGCUAUAAUGGGUAUGCAGGAGGACCUGGAGGUGGCAA | 0.704
UGGCCCUGGUGGCAUGCGGGGAGGAAGAGGCGGCCUCAUGGAUCGUGGUGGUCCCGGUGGAAUGUUCAGAGGUGGCCGUGGUGGAGACAG | -0.349

Series 4 — method: protein-binding microarray; form: double-stranded DNA, one strand shown; medium: in vitro; concentration: 250 nM; setting: 60-bp whole probe; with: salmon DNA 0.4 mg/ml; baseline: random background probes; reading: higher = stronger binding; constant ends, left off below: GCCTAGCAC … GTCTTGATTCGCTTGACGCTGCTG
Target: Interferon regulatory factor 7, full length, phosphomimetic (IRF7, Homo sapiens, UniProt Q92985, residues 1-503, S101K/S471D/S472D/S475D/S476D/S477D/S483D/S484D/S487D)
Sequence of UniProt Q92985 (whole entry, unmodified, looked up): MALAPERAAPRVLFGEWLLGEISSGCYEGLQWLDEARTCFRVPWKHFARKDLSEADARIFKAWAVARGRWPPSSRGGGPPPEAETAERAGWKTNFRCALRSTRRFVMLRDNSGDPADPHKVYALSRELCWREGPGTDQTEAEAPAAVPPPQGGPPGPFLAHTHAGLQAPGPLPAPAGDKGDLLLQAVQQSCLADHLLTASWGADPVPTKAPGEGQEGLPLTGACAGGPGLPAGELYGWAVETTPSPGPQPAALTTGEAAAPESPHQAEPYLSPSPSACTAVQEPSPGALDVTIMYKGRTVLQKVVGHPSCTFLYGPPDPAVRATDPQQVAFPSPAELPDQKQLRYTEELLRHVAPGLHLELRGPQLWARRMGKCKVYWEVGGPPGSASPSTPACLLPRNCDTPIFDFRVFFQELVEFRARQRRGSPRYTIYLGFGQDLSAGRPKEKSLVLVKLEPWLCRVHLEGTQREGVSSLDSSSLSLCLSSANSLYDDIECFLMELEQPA
Oligonucleotide | log fluorescence [z-score]
AAGCAGTTACTCTAGAGGCCGTGCTAG | -0.618
GACGATATCGGACTGGGGACGTGCTAG | -0.221
TTAGGTTTCCTTTTCCTTCAGTGCTAG | 6.66
TCATCTTTGCTCATTTTTACTGTGCTA | 0.688
GACGTACTGAGTCTCGAGACGTGCTAG | 0.321
GACGGTTGCGGGACTGGGGACGTGCTA | -0.413
TTCGGTATCGACACTGGGTTAGTGCTA | -0.129
GAAGGTTTCGGACTGGGGACGTGCTAG | 3.52
TTAGGTCTCCTTCTCCCTTAGTGCTAG | 0.283
GACGGACTGGGGTATCGGGCCGTGCTA | -1.18
GACGATATCGGGACTGGAGTCGTGCTA | -0.231
TTACAACTGAGTTTCGATTAGTGCTAG | 7.98
GACGTACTGGGGACTGGAGACGTGCTA | -0.157
GGGTGAATGTGTCTTAAATAGTGCTAG | -0.423
GACGATTTCGGGACTGGCGACGTGCTA | -0.0722
TTAGATCTCAGTCCCGATTAGTGCTAG | 0.319
GACGATTTCAGGACTGGAGACGTGCTA | -0.142
TTAGATTTCAGTATCGAATAGTGCTAG | 0.681
TGAGGTTTCGGTCTCGGTTAGTGCTAG | 8.23
GACGCTATCGGACTGGGGACGTGCTAG | -0.11
TCAGTTGTGATTCTTTCACTGTGCTAG | 0.127
TCACCATTAAATTTTAAACTGTGCTAG | 0.0937
TTAAATTTCAGTATCGATTAGTGCTAG | 1.26
GACGATTTCAGACTGGAGGCGTGCTAG | 0.173
TCAGATCTCAGACTGTGACTGTGCTAG | -0.145

Series 5 — method: RNA Bind-n-Seq; form: RNA; medium: in vitro; concentration: not given; baseline: input RNA pool; reading: higher = stronger binding
Target: RING finger protein unkempt homolog, zinc fingers 1-6, GST-SBP tag (UNK, Homo sapiens, UniProt Q9C0B0, residues 30-357)
Sequence of UniProt Q9C0B0 (30-357, looked up): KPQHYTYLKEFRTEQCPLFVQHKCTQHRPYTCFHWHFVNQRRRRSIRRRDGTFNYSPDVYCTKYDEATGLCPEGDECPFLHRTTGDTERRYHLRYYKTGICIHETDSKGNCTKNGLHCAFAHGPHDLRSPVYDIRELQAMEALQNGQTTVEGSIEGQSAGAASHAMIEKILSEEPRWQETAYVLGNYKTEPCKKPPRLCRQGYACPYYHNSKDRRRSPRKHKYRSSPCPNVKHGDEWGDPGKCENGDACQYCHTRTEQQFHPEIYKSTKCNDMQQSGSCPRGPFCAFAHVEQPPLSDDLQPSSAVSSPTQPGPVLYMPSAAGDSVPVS
Setting: RNA with constant flanks, human and mouse sites, ends assumed
Constant ends, left off below: GGGAGUUCUACAGUCCGACGAUC … CAACAGAGGAUUGAGCAUCA
Oligonucleotide | bound/input enrichment [ratio]
GUGUGUACAUUGUCCAAAAUGCUGGAGAUUCUCGAGCAGCAGAAAAAAGUUGAUGCUGAGACAGUUGGGAGAGUGAAGAGGUUUAUUCAGGAGAAUGUCUUUGUGGCAGCGAAUCAUAAU | 0.227
GCAGAGAUGGAGAAUAUUAAGGCGAUUGCCACAGUCUCUGAGAACACCAAGCAAGAAGCUAUAGAUGAAGUGAAAAGACAGUGGAGAGAAGAAGUUGCUUCACUUCAGGCUGUUAUGAAA | 0.188
ACAAUGAAACUAGUCUGGAAAAAAAAACUUGCUUUUUGUUGUAGUUACCACUUAACCCUGUAGUUUAACAAGGAAUGUCUGUGCCAAUAAACCAAUUCUCCCUCUGCUUGACAUUGGCAG | 0.841
UUGCAUAAGACAGUUAUGCAAAAUGGAGCUGGAGGAGCUUUAUUUGUGCACAGAGAUACUCCUGAGAAUAACCCUGAUACUCCAUUUGAUUUCACACCAGAAAACUAUAAGAGGAUAGAG | 0.175
UAGCAUUUCAUGAGUUAGAAACAGGAAGAACAUUAUAAUUAAUAUUACCUAAGUCUAAAGUACCCAUAUAUUCAAAUUGGAUAUACUAUUUUUUCCUCUUGUGUUUAGAGAUUACCUAGG | 2.07
UGGUGUUUUCCCAAGGCUCCCUUCCCAAGCUCAGUGCAAACCUCUCACUCCCAAGUUUCUUUGAGGCCACUUGCCCCCAAGCACUUCACAAUAGACCCUCGAGGGCUUGUGUCCAUUUGG | 0.438
AACAUUGUAUCAUAGUUCAUUCAUUUGCAGUGGAUCUUUGUUCCUUUUUACUGUGGUAAUUUUAGAAAUGAGUGUCAAGUUUGAAAUUAGAUCUGCUAAGUUGGGGUUUUGCUGCUUGAA | 1.03
CUCAUACAGAUCCUGCAGCUCAUGGCCAACAGCACACAGAUGAAGAAGGUUAUGUUAACAGUAUUUAAACACAAUCAUGGUGCCUACCAGUUCUUCAGAGAAGCGUUGCAAUUUGAAAUU | 0.277
GAUUCUGAUGACAGUGCUUCAGGGAUUGAAGAUACAGCAGAUGAUUUGAGUAAAAUGAAGAGUGAGGAAUCUAACAAAGAAAAUUCUUCUGAGAUGGACUAUUUAGAAAAUGCCACUGUA | 0.324
AUCUCCUUUUAUGCUCACCUGACAUUAAUUAUCUAUCCUUGAUGAUGUGUUUAAACUGAGUAGCAGAAAACAGAGGCCACACUUUCUGGGAAAUUUUAAAGGAAGAAACCAUUUUUAAUG | 0.225
CACGUGUCUGCAGUACUUGAUGUGGACUACUCUCCCACUGGGAAGGAAUUUGUGUCUGCCAGCUUUGAUAAGUCUAUUAGAAUCUUUCCUGUGGACAAGAGCCGAAGCAGGGAAGUGUAU | 0.413

Single results of other studies
Substance | target | test | system | setting | how to read | quantity | value
PhoQ, residues 284 288 289 292 302 303 SLGVVW | PhoP, residues 12 14 15 18 19 TQAIL (Escherichia coli, UniProt P23836) | Sort-seq, refers to: YFP reporter | E. coli | PhoQ-PhoP variant library, with: 10 µM Mg2+ | baseline: high Mg2+ state, higher = stronger signaling | fold induction | 5.93

Some of these lines once more (series 4):
Oligonucleotide | log fluorescence [z-score]
GACGATTTCAGGACTGGAGACGTGCTA | -0.142
TTAGATTTCAGTATCGAATAGTGCTAG | 0.681
TGAGGTTTCGGTCTCGGTTAGTGCTAG | 8.23
GACGCTATCGGACTGGGGACGTGCTAG | -0.11
TCAGTTGTGATTCTTTCACTGTGCTAG | 0.127
TCACCATTAAATTTTAAACTGTGCTAG | 0.0937
TTAAATTTCAGTATCGATTAGTGCTAG | 1.26
GACGATTTCAGACTGGAGGCGTGCTAG | 0.173
TCAGATCTCAGACTGTGACTGTGCTAG | -0.145
